Results of several laboratories.
Every numbered part comes from another study and shows a few of its results, in no order.
Chain of UniProt O75116 (whole entry, looked up): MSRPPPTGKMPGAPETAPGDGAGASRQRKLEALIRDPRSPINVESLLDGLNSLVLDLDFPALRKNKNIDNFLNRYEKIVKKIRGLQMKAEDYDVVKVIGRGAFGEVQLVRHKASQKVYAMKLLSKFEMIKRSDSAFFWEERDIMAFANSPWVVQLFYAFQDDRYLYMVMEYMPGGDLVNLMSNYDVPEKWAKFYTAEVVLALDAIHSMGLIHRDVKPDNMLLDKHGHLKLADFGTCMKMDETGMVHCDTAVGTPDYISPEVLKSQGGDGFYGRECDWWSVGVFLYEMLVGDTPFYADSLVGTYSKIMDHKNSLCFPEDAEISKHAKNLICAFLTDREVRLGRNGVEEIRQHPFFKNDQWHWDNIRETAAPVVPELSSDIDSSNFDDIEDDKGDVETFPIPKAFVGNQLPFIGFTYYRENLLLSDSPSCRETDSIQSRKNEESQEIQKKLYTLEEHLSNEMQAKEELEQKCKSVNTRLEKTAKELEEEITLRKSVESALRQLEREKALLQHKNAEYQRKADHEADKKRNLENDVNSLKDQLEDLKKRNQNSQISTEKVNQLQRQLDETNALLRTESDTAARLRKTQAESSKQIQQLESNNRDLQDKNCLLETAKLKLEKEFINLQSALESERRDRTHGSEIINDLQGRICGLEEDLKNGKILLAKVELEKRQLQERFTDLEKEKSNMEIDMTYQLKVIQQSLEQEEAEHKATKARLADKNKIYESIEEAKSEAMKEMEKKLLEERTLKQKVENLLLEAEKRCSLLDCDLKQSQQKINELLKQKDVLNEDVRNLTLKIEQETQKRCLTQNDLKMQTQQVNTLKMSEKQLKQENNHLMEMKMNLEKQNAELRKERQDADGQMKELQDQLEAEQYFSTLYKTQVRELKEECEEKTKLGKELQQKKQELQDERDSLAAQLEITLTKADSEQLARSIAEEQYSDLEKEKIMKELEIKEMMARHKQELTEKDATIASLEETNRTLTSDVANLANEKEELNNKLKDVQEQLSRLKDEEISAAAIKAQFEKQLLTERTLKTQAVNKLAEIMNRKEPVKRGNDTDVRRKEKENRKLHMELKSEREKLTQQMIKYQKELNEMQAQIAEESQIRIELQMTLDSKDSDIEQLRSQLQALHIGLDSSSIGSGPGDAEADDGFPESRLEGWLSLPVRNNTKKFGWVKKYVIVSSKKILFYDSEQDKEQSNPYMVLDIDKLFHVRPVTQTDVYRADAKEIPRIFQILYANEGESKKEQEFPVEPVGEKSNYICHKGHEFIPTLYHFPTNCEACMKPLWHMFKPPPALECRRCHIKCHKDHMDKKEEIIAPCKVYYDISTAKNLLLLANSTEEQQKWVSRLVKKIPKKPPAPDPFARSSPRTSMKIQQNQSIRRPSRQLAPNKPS
Chain of UniProt Q15139 (whole entry, looked up): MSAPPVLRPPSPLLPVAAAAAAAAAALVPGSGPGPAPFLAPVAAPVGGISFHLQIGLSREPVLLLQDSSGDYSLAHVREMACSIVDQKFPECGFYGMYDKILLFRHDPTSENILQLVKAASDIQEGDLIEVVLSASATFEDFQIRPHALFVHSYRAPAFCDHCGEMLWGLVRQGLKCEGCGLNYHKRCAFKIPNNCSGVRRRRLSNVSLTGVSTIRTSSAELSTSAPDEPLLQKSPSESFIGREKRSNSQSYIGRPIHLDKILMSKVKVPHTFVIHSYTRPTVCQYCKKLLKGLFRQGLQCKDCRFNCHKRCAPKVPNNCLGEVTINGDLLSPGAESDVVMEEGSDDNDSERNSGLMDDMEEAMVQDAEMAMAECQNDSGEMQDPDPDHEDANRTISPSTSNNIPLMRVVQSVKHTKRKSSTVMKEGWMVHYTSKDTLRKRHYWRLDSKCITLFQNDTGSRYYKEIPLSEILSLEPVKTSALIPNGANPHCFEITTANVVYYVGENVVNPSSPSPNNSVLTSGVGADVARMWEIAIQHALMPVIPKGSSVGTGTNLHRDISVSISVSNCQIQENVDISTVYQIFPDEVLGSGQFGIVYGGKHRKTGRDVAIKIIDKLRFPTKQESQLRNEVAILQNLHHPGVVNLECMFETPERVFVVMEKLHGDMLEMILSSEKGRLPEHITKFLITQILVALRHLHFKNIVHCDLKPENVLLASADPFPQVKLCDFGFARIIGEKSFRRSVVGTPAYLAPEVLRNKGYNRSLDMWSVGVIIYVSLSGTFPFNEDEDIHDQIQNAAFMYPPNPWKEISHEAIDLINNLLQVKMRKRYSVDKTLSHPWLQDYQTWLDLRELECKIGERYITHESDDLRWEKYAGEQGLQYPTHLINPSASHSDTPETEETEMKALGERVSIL
Chain of UniProt O00750 (whole entry, looked up): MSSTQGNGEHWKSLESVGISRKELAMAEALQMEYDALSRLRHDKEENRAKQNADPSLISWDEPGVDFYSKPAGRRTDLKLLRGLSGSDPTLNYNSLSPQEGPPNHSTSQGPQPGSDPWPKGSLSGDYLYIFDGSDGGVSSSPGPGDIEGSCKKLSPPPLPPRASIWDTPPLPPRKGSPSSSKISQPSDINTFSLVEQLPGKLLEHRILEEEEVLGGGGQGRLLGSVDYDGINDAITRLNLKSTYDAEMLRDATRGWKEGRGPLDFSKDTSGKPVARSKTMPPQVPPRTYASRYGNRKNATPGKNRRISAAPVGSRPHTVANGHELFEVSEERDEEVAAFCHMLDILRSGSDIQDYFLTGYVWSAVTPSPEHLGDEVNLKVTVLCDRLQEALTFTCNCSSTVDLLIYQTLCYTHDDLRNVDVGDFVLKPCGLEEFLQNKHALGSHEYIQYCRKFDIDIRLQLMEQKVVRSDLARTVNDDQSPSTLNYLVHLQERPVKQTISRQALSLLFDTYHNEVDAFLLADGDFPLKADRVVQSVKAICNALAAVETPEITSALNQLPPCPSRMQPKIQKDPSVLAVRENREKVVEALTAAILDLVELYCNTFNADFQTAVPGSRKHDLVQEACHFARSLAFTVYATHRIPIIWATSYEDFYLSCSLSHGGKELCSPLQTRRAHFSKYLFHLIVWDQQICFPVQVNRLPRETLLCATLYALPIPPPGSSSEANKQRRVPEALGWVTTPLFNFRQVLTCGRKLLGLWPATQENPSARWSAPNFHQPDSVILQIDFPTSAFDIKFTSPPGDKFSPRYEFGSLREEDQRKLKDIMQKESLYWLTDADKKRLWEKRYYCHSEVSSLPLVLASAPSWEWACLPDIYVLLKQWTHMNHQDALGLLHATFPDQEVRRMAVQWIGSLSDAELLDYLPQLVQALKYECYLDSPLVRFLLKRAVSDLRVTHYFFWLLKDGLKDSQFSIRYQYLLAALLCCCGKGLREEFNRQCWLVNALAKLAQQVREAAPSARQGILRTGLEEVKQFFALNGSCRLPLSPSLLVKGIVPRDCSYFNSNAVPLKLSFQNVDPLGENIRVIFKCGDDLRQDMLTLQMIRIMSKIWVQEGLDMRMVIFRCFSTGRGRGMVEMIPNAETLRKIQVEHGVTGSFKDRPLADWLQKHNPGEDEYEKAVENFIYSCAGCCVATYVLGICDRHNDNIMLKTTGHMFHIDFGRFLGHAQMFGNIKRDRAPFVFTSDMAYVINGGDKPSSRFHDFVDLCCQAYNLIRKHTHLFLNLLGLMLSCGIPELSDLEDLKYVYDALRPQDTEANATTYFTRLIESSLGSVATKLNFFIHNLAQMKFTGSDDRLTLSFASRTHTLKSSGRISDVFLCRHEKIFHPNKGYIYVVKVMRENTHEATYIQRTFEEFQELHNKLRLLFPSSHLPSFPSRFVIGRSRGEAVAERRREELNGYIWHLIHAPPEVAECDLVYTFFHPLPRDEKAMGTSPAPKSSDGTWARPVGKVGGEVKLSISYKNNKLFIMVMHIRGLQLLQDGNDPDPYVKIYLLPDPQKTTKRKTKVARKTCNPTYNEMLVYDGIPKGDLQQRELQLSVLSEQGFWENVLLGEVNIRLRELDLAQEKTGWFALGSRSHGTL
Chain of UniProt Q9H422 (whole entry, looked up): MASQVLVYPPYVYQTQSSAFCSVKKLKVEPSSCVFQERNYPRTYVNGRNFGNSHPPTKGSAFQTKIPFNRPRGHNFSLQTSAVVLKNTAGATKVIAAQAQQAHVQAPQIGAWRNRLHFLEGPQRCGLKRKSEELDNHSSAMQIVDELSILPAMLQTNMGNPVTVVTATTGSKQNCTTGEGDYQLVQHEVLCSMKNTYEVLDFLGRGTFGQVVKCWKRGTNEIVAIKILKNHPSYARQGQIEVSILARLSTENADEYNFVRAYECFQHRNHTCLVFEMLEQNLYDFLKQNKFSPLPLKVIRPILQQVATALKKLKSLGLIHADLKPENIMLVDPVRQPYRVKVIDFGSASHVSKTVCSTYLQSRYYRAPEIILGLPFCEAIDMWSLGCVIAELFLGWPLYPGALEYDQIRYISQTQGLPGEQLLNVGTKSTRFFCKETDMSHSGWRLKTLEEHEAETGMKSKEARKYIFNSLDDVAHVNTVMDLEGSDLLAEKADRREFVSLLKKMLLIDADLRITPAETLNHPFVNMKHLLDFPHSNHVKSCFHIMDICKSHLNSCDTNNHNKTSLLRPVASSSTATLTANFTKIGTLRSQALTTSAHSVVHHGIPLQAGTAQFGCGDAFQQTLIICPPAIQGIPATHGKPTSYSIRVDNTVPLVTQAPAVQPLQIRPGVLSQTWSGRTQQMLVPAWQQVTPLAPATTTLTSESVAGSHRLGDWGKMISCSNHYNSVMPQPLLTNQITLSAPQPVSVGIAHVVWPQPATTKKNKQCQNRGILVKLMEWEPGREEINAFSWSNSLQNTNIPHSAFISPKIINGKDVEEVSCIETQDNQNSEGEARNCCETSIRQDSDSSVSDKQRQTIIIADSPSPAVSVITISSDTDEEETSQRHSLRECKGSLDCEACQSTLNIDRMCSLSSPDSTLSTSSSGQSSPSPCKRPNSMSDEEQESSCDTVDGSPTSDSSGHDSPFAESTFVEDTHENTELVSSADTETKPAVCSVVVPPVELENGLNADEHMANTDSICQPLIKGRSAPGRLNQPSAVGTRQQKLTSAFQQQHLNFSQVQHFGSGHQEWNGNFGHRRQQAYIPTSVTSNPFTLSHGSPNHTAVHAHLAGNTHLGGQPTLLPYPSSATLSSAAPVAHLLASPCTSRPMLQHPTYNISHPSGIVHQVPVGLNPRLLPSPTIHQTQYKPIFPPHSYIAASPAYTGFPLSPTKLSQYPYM

Series 1
Structure (SMILES): CC(C)n1cnc(-c2ccc(F)cc2)c1-c1ncc(C(=O)Nc2ccc(N3CCN(C)CC3)cc2)[nH]1
test | system | setting | patients with productive cough [%]
phase 2a trial | idiopathic pulmonary fibrosis patients | 60 mg once daily, grade 5 emergent event | 0
phase 2a trial | idiopathic pulmonary fibrosis patients | 30 mg once daily, grade 3 emergent event | 0
phase 2a trial | idiopathic pulmonary fibrosis patients | all arms, grade 5 emergent event | 0
phase 2a trial | idiopathic pulmonary fibrosis patients | all arms, grade 3 emergent event | 0
phase 2a trial | idiopathic pulmonary fibrosis patients | 30 mg once daily, grade 4 emergent event | 0
phase 2a trial | idiopathic pulmonary fibrosis patients | 60 mg once daily, grade 1 emergent event | 0
phase 2a trial | idiopathic pulmonary fibrosis patients | 60 mg once daily, grade 2 emergent event | 0
– | human, idiopathic pulmonary fibrosis | 30 mg once daily, trial, treatment-emergent | 0

Series 2
Structure (SMILES): N#Cc1ccc(Nc2ccc3[nH]c(=O)[nH]c3c2)c(Cl)c1
Read-out: cell-free assay
Method: competition with immobilised ligand
Tested at: 1 µM
target | remaining binding
cGMP-dependent protein kinase 1 (PRKG1, Homo sapiens, UniProt Q13976) | 80%
Phosphatidylinositol 4,5-bisphosphate 3-kinase catalytic subunit alpha isoform (PIK3CA, Homo sapiens, UniProt P42336, H1047Y) | 100%
Epithelial discoidin domain-containing receptor 1 (DDR1, Homo sapiens, UniProt Q08345) | 100%
Fibroblast growth factor receptor 2 (FGFR2, Homo sapiens, UniProt P21802) | 100%
Dual specificity protein kinase CLK4 (CLK4, Homo sapiens, UniProt Q9HAZ1) | 98%
Phosphatidylinositol 4-phosphate 3-kinase C2 domain-containing subunit beta (PIK3C2B, Homo sapiens, UniProt O00750) | 99%
Mast/stem cell growth factor receptor Kit (KIT, Homo sapiens, UniProt P10721) | 100%
Ribosomal protein S6 kinase alpha-3, N-terminal kinase domain (RPS6KA3, Homo sapiens, UniProt P51812) | 100%

Series 3
Organism: Sarcocystis neurona
Read-out: parasite growth
Tested at: 10 µM
Baseline: untreated
SMILES | log2 fold change
Fc1ccc([C@@H]2CCNC[C@H]2COc2ccc3c(c2)OCO3)cc1.O=C(O)/C=C\C(=O)O | -0.07
CCCCC(=O)O[C@H]1CC[C@H]2[C@@H]3CCc4cc(O)ccc4[C@H]3CC[C@]12C | 0.33
COc1cc(C[C@@H](CO)[C@H](CO)Cc2ccc(O)c(OC)c2)ccc1O | 0.3
O=C(O[C@@H]1Cc2c(O)cc(O)cc2O[C@@H]1c1cc(O)c(O)c(O)c1)c1cc(O)c(O)c(O)c1 | 0.31
CC(C)c1ccc2c(c1)c(SC(C)(C)C)c(CC(C)(C)C(=O)O)n2Cc1ccc(Cl)cc1 | -0.12
Cl.NC1CCN(c2cccc(Cl)n2)CC1 | 0.26
CC1(C)S[C@@H]2[C@H](NC(=O)Cc3ccccc3)C(=O)N2[C@H]1C(=O)[O-].[K+] | 0.38
Cl.NC[C@H](O)c1ccc(O)c(O)c1 | 0.38
C[N+]1(C)CCC(OC(=O)C(O)(c2ccccc2)C2CCCC2)C1.[Br-] (stereo not shown) | -0.03

Series 4
Compound: O=C1NC(=O)/C(=C/c2ccc3nccnc3c2)S1
Read-out: enzyme activity
Mode: inhibitor
Tested at: 0.5 µM
Baseline: control
target | remaining activity [%]
STE20-like serine/threonine-protein kinase (SLK, Homo sapiens, UniProt Q9H2G2) | 96.3
Mitogen-activated protein kinase kinase kinase 8 (MAP3K8, Homo sapiens, UniProt P41279) | 99.6
Serine/threonine-protein kinase N2 (PKN2, Homo sapiens, UniProt Q16513) | 107
Mitogen-activated protein kinase kinase kinase 2 (MAP3K2, Homo sapiens, UniProt Q9Y2U5) | 108
Protein-tyrosine kinase 2-beta (PTK2B, Homo sapiens, UniProt Q14289) | 106
Calcium/calmodulin-dependent protein kinase type 1D (CAMK1D, Homo sapiens, UniProt Q8IU85) | 102
Proto-oncogene tyrosine-protein kinase ROS (ROS1, Homo sapiens, UniProt P08922) | 92.3
Cyclin-dependent kinase 2, with cyclin A (CDK2, Homo sapiens, UniProt P24941) | 99.7
Mitogen-activated protein kinase 10 (MAPK10, Homo sapiens, UniProt P53779) | 96
Serine/threonine-protein kinase D1 (PRKD1, Homo sapiens, UniProt Q15139) | 94.8
Serine/threonine-protein kinase BRSK1 (BRSK1, Homo sapiens, UniProt Q8TDC3) | 92.4
Rho-associated protein kinase 2 (ROCK2, Homo sapiens, UniProt O75116) | 91.3
Epidermal growth factor receptor (EGFR, Homo sapiens, UniProt P00533) | 81.6
Dual specificity tyrosine-phosphorylation-regulated kinase 4 (DYRK4, Homo sapiens, UniProt Q9NR20) | 96.5
Homeodomain-interacting protein kinase 3 (HIPK3, Homo sapiens, UniProt Q9H422) | 92.4
G protein-coupled receptor kinase 5 (GRK5, Homo sapiens, UniProt P34947) | 105
Serine/threonine-protein kinase Nek9 (NEK9, Homo sapiens, UniProt Q8TD19) | 111
Calcium/calmodulin-dependent protein kinase type 1G (CAMK1G, Homo sapiens, UniProt Q96NX5) | 105
Casein kinase II subunit alpha' (CSNK2A2, Homo sapiens, UniProt P19784) | 3.08
Aurora kinase A (AURKA, Homo sapiens, UniProt O14965) | 97.2
NT-3 growth factor receptor (NTRK3, Homo sapiens, UniProt Q16288) | 95.3
Cyclin-dependent kinase 7 (CDK7, Homo sapiens, UniProt P50613) | 85.2
Proto-oncogene tyrosine-protein kinase receptor Ret (RET, Homo sapiens, UniProt P07949) | 97.7
Myotonin-protein kinase (DMPK, Homo sapiens, UniProt Q09013) | 112

Series 5
SMILES: COc1ccc(-c2c(Nc3ccccn3)[nH]c3c(C4=CCCCC4)c(-c4ccccc4)nn3c2=O)cc1
Method: LC-MS/MS
Refers to: S-adenosylmethionine
Species: human patients
Sample: plasma
setting | plasma SAM concentration
200 mg BID, 1 h, geometric mean | 10.7 ng/mL
50 mg QD, 1 h, geometric mean | 23.6 ng/mL
400 mg QD, 4 h, mean | 20.8 ng/mL
100 mg QD, 2 h, mean | 19 ng/mL
50 mg QD, 1 h, mean | 24.9 ng/mL
200 mg BID, 6 h, mean | 11.6 ng/mL

Repeated from above (series 5):
setting | plasma SAM concentration
400 mg QD, 4 h, mean | 20.8 ng/mL
50 mg QD, 1 h, mean | 24.9 ng/mL
200 mg BID, 6 h, mean | 11.6 ng/mL
100 mg QD, 2 h, mean | 19 ng/mL
50 mg QD, 1 h, geometric mean | 23.6 ng/mL
200 mg BID, 1 h, geometric mean | 10.7 ng/mL
